Experimental data of several laboratories.
Each line is one published result; not all experiments were run side by side. Values after ≈ are worked out from the molar mass of the structure shown.
Organism: Escherichia coli

| SMILES | assay | test system | setting | measurement | value |
| --- | --- | --- | --- | --- | --- |
| CC[C@H](C)[C@H](NC(=O)[C@H](CCCNC(=N)N)NC(=O)[C@H](CCCCN)NC(=O)[C@H](CC(C)C)NC(=O)[C@H](CC(C)C)NC(=O)CN)C(=O)N[C@@H](CCCCN)C(=O)N[C@H](C(=O)N[C@@H](CC(C)C)C(=O)N[C@@H](CC(C)C)C(=O)NCCCC[C@H](NC(=O)[C@H](CC(C)C)NC(=O)[C@H](CC(C)C)NC(=O)[C@@H](NC(=O)[C@H](CCCCN)NC(=O)[C@@H](NC(=O)[C@H](CCCNC(=N)N)NC(=O)[C@H](CCCCN)NC(=O)[C@H](CC(C)C)NC(=O)[C@H](CC(C)C)NC(=O)CN)[C@@H](C)CC)[C@@H](C)O)C(=O)NCCCC[C@H](NC(=O)[C@H](CCCCNC(=O)[C@H](CC(C)C)NC(=O)[C@H](CC(C)C)NC(=O)[C@@H](NC(=O)[C@H](CCCCN)NC(=O)[C@@H](NC(=O)[C@H](CCCNC(=N)N)NC(=O)[C@H](CCCCN)NC(=O)[C@H](CC(C)C)NC(=O)[C@H](CC(C)C)NC(=O)CN)[C@@H](C)CC)[C@@H](C)O)NC(=O)[C@H](CC(C)C)NC(=O)[C@H](CC(C)C)NC(=O)[C@@H](NC(=O)[C@H](CCCCN)NC(=O)[C@@H](NC(=O)[C@H](CCCNC(=N)N)NC(=O)[C@H](CCCCN)NC(=O)[C@H](CC(C)C)NC(=O)[C@H](CC(C)C)NC(=O)CN)[C@@H](C)CC)[C@@H](C)O)C(N)=O)[C@@H](C)O | checkerboard | ATCC 25922 | together with: gentamicin | FIC index | 0.312 |
| O=C(CCCOc1ccc(Cl)cc1Cl)N/N=C/c1ccc[nH]1 | – | TolC | 50 µM | growth inhibition | 67% |
| C[C@]1(COC(=O)c2ccccc2O)[C@H](C(=O)O)N2C(=O)/C(=C/c3ccccn3)[C@H]2S1(=O)=O | broth microdilution | MG1655 expressing CTX-M-2 | 16 µg/mL | MIC of ceftazidime | 64 µg/mL |
| CC[C@H](C)[C@H](NC(=O)[C@H](CCN)NC(=O)CCCCCCCCCCCNC(=O)CCCCCOC(=O)c1cn(C2CC2)c2cc(N3CCNCC3)c(F)cc2c1=O)C(=O)N[C@@H](CCN)C(=O)N[C@H](Cc1ccccc1)C(=O)N[C@@H](CC(C)C)C(=O)N[C@@H](CCN)C(=O)N[C@@H](C(=O)N[C@@H](CC(C)C)C(=O)N[C@@H](CO)C(N)=O)C(C)C | – | – | 6.25 µM, 12 h, 37 °C | survival | 20.6% |
| CCCCCCCCCCCCCCCC(=O)N[C@@H](CCCCN)C(=O)N[C@@H](CCCCN)C(=O)N[C@@H](CCCCN)C(=O)N[C@@H](CCCCN)C(N)=O | – | K12 | – | MBC | 64 µg/mL (≈ 83.3 µM) |
| CC[C@H](C)[C@@H]1NC(=O)[C@H](CCCCN)NC(=O)[C@@H](NC(=O)[C@H](C)NC(=O)[C@@H](NC(=O)[C@H](CC(C)C)NC(=O)[C@H](CC(N)=O)NC(=O)[C@@H](NC(=O)CNC(=O)[C@H](CC(C)C)NC(=O)[C@H](CCCNC(=N)N)NC(=O)[C@H](C)NC(=O)[C@H](CC(C)C)NC(=O)[C@H](CC(=O)O)NC(=O)[C@H](CCCCN)NC(=O)CNC(=O)[C@H](CC(C)C)NC(=O)CNC(=O)[C@H](CCCCN)NC(=O)[C@H](CO)NC(=O)[C@H](C)NC(=O)[C@H](Cc2ccccc2)NC(=O)[C@H](CCCCN)NC(=O)[C@H](C)NC(=O)[C@@H](NC(=O)CNC(=O)[C@H](CCCNC(=N)N)NC(=O)[C@H](Cc2ccccc2)NC(=O)[C@@H](NC(=O)[C@H](CO)NC(=O)[C@H](CO)NC(=O)[C@H](Cc2ccccc2)NC(=O)CN)[C@@H](C)CC)C(C)C)C(C)C)C(C)C)CSSC[C@@H](C(=O)O)NC(=O)[C@H](CCC(N)=O)NC(=O)[C@H](CCCCN)NC(=O)[C@H](CO)NC1=O | – | ATCC 8739 | 4 × MIC | time to complete killing | 10 min |
| CC[C@H](C)[C@H](NC(=O)[C@H](CCCCN)NC(=O)[C@H](CCCCN)NC(=O)[C@H](CC(C)C)NC(=O)[C@H](CCCCN)NC(=O)[C@H](CCC(=O)O)NC(=O)[C@H](CCCCN)NC(=O)[C@@H](NC(=O)[C@H](CCCCN)NC(=O)[C@H](CC(N)=O)NC(=O)[C@H](CCCNC(=N)N)NC(=O)[C@H](Cc1ccccc1)NC(=O)[C@H](CCCCN)NC(=O)[C@H](CCCNC(=N)N)NC(=O)[C@H](CC(C)C)NC(=O)[C@H](CCCNC(=N)N)NC(=O)[C@H](CCCCN)NC(=O)[C@H](CCCNC(=N)N)NC(=O)[C@@H](N)CC(C)C)[C@@H](C)CC)C(=O)NCC(=O)N[C@@H](CCC(N)=O)C(=O)N[C@@H](CCCCN)C(=O)N[C@H](C(=O)N[C@@H](CCC(N)=O)C(=O)NCC(=O)N[C@@H](Cc1ccccc1)C(=O)N[C@H](C(=O)N1CCC[C@H]1C(=O)N[C@@H](CCCCN)C(=O)N[C@@H](CC(C)C)C(=O)O)C(C)C)[C@@H](C)CC | inhibition zone | Am. J23a | – | lethal concentration | 1.33 µM |
| Cc1ccc([C@H]2N[C@H](C(=O)O)Cc3c2[nH]c2ccccc32)c(C)c1 | – | BL21(DE3) | 250 µM, 18 h | growth inhibition | 0% |
| CC[C@H](C)[C@H](NC(=O)[C@H](CCCCN)NC(=O)[C@H](CCCCN)NC(=O)[C@H](CC(C)C)NC(=O)[C@H](CCCCN)NC(=O)[C@H](CCC(=O)O)NC(=O)[C@H](CCCCN)NC(=O)[C@@H](NC(=O)[C@H](CCCCN)NC(=O)[C@H](CC(N)=O)NC(=O)[C@H](CCCNC(=N)N)NC(=O)[C@H](Cc1ccccc1)NC(=O)[C@H](CCCCN)NC(=O)[C@H](CCCNC(=N)N)NC(=O)[C@H](CC(C)C)NC(=O)[C@H](CCCNC(=N)N)NC(=O)[C@H](CCCCN)NC(=O)[C@H](CCCNC(=N)N)NC(=O)[C@H](CC(C)C)NC(=O)[C@@H](N)CCCNC(=N)N)[C@@H](C)CC)C(=O)NCC(=O)N[C@@H](CCC(N)=O)C(=O)N[C@@H](CCCCN)C(=O)N[C@H](C(=O)N[C@@H](CCC(N)=O)C(=O)NCC(=O)N[C@@H](Cc1ccccc1)C(=O)N[C@H](C(=O)N1CCC[C@H]1C(=O)N[C@@H](CCCCN)C(=O)N[C@@H](CC(C)C)C(=O)N[C@@H](CCC(N)=O)C(=O)N1CCC[C@H]1C(=O)N[C@@H](CO)C(=O)N[C@@H](CCCCN)C(=O)N[C@@H](CCC(N)=O)C(=O)N[C@@H](CO)C(=O)O)C(C)C)[C@@H](C)CC | inhibition zone | D. J45b | – | lethal concentration | 5.23 µM |
| C[C@@](O)(C(F)F)[C@H](NC(=O)c1ccc(C#CC#CC2CC2)cc1)C(=O)NO | survival | NDM-1 producing, CD-1 mice, infection model | IV first dose then IP every 12 h, 5 days, first dose 2 h post-infection | ED50 | 3.6 mg/kg per dose |
| CCCC(=O)NCC(=O)N[C@@H](CC(C)C)C(=O)N[C@@H](CC(C)C)C(=O)N[C@@H](CCCCN)C(=O)N[C@@H](CCCNC(=N)N)C(=O)N[C@H](C(=O)N[C@@H](CCCCN)C(=O)N[C@H](C(=O)N[C@@H](CC(C)C)C(=O)N[C@@H](CC(C)C)C(=O)NCCCC[C@H](NC(=O)[C@H](CC(C)C)NC(=O)[C@H](CC(C)C)NC(=O)[C@@H](NC(=O)[C@H](CCCCN)NC(=O)[C@@H](NC(=O)[C@H](CCCNC(=N)N)NC(=O)[C@H](CCCCN)NC(=O)[C@H](CC(C)C)NC(=O)[C@H](CC(C)C)NC(=O)CNC(=O)CCC)[C@@H](C)CC)[C@@H](C)O)C(N)=O)[C@@H](C)O)[C@@H](C)CC | checkerboard | ATCC 25922 | together with: polymyxin B | FIC index | 0.25 |
| CC[C@H](C)[C@H](NC(=O)[C@H](CCCCN)NC(=O)[C@H](CCCCN)NC(=O)[C@H](CC(C)C)NC(=O)[C@H](CCCCN)NC(=O)[C@H](CCC(=O)O)NC(=O)[C@H](CCCCN)NC(=O)[C@@H](NC(=O)[C@H](CCCCN)NC(=O)[C@H](CC(N)=O)NC(=O)[C@H](CCCNC(=N)N)NC(=O)[C@H](Cc1ccccc1)NC(=O)[C@H](CCCCN)NC(=O)[C@H](CCCNC(=N)N)NC(=O)[C@H](CC(C)C)NC(=O)[C@H](CCCNC(=N)N)NC(=O)[C@H](CCCCN)NC(=O)[C@H](CCCNC(=N)N)NC(=O)[C@H](CC(C)C)NC(=O)CN)[C@@H](C)CC)C(=O)NCC(=O)N[C@@H](CCC(N)=O)C(=O)N[C@@H](CCCCN)C(=O)N[C@H](C(=O)N[C@@H](CCC(N)=O)C(=O)NCC(=O)N[C@@H](Cc1ccccc1)C(=O)N[C@H](C(=O)N1CCC[C@H]1C(=O)N[C@@H](CCCCN)C(=O)N[C@@H](CC(C)C)C(=O)N[C@@H](C)C(=O)N1CCC[C@H]1C(=O)N[C@@H](CCCNC(=N)N)C(=O)N[C@H](C(=O)N[C@@H](CC(=O)O)C(=O)N[C@@H](Cc1ccc(O)cc1)C(=O)O)[C@@H](C)O)C(C)C)[C@@H](C)CC | inhibition zone | TOP10 | – | lethal concentration | 1.62 µM |

A few entries again:
| SMILES | assay | test system | setting | measurement | value |
| --- | --- | --- | --- | --- | --- |
| CC[C@H](C)[C@H](NC(=O)[C@H](CCN)NC(=O)CCCCCCCCCCCNC(=O)CCCCCOC(=O)c1cn(C2CC2)c2cc(N3CCNCC3)c(F)cc2c1=O)C(=O)N[C@@H](CCN)C(=O)N[C@H](Cc1ccccc1)C(=O)N[C@@H](CC(C)C)C(=O)N[C@@H](CCN)C(=O)N[C@@H](C(=O)N[C@@H](CC(C)C)C(=O)N[C@@H](CO)C(N)=O)C(C)C | – | – | 6.25 µM, 12 h, 37 °C | survival | 20.6% |
